Measurements gathered from unrelated publications.
Every numbered part comes from another study and shows a few of its results, in no order. Positions count from the first letter of the parent shown.

Series 1
Target: Sal-like protein 4, full length isoform A (SALL4, Homo sapiens, UniProt Q9UJQ4, residues 1-1053)
Chain of UniProt Q9UJQ4 (whole entry, looked up): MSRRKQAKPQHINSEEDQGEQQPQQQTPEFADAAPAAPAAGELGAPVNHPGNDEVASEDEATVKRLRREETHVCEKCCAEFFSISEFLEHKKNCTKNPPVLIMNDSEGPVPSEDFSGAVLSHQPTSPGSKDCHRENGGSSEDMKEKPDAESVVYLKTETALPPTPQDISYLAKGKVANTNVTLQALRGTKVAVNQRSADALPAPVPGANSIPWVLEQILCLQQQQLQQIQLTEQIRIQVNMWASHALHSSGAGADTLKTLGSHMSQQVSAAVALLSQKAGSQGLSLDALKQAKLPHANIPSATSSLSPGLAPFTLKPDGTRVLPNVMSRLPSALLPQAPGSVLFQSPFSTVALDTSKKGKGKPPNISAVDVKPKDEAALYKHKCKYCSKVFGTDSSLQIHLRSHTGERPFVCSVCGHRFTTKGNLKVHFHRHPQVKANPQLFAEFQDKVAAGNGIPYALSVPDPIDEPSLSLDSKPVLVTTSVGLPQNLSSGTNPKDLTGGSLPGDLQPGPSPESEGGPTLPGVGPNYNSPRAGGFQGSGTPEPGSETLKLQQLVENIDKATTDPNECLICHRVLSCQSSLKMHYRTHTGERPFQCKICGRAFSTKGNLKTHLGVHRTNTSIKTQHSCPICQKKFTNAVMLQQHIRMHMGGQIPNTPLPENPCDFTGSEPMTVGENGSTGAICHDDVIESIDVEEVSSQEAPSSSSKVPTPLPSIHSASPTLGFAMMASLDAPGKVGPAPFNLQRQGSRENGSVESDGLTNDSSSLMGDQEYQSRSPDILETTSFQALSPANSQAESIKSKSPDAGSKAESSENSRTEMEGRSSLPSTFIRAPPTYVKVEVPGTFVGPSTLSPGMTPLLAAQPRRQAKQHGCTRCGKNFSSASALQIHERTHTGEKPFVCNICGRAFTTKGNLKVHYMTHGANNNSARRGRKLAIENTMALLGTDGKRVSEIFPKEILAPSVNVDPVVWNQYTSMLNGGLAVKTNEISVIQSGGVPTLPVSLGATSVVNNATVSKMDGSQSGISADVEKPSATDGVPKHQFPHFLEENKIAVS
Technique: universal PBM
Form: double-stranded DNA, one strand shown
Sample: in vitro
Concentration: 600 nM
Notes: 8-mer, flanks averaged, mean of replicates
Direction: higher = stronger binding
Endpoint: E-score
AAAATATC: 0.368
AACTGAAA: 0.225
CATCTTAA: 0.144
AACATCGG: -0.0887
AAGATTCC: 0.0817
ATGGTATC: 0.0965
CACACGCG: 0.038
AGCCTCTG: -0.288
ATGGGGGC: -0.283
ACAGTACT: 0.107
AGGTTTTG: -0.0654
CAAAACAC: 0.123
CCAGAGAA: 0.0219
GGTCGACC: -0.188
CGAGCGAC: -0.13
GAACGGAC: -0.0999
TACGAATA: 0.285
AGAACGTA: 0.0362
TTATTAAA: 0.452
CATTGCAC: 0.0863
CGTTTTTC: 0.125

Series 2
Target: CCNB3, cyclin fold, Cln2 fusion (human)
Technique: yeast growth competition, sequencing
Sample: yeast
Notes: strong parent motif
Baseline: not given
Direction: higher = stronger binding
Endpoint: normalised enrichment score
Parent: BRCA2 docking peptide (human); PSIKRNLLNEFDR; partner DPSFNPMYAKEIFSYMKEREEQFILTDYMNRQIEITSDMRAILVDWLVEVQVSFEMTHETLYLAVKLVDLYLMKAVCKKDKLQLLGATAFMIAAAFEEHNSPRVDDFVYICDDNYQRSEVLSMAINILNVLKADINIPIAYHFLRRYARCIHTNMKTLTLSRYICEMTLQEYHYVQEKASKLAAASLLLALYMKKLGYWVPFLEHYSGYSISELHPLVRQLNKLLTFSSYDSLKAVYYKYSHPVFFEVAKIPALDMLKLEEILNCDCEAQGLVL
PSIKMNLLNEFDR [R5M]: 0.446
LSIKRNLLNEFDR [P1L]: 1.01
PSIKWNLLNEFDR [R5W]: 0.285
VSIKRNLLNEFDR [P1V]: 1.09
PSIVRNLLNEFDR [K4V]: 1.47
PSIKRNGLNEFDR [L7G]: 0.23
PSIKRNLLPEFDR [N9P]: 1.15
PSAKRNLLNEFDR [I3A]: 0.501
PSIKRNLLNSFDR [E10S]: 0.454
PSIKRNLLNCFDR [E10C]: -0.0829
PSIKVNLLNEFDR [R5V]: 0.755
YSIKRNLLNEFDR [P1Y]: 1.96
PSNKRNLLNEFDR [I3N]: 0.0348
PSIKHNLLNEFDR [R5H]: -0.0304
PSIKRNLLNEDDR [F11D]: 0.0827
PSIKRNNLNEFDR [L7N]: -1.12
PSMKRNLLNEFDR [I3M]: 0.0516
NSIKRNLLNEFDR [P1N]: 1.59
PSIKRNMLNEFDR [L7M]: 0.0374
PSPKRNLLNEFDR [I3P]: 1.03
PSIKRNLLHEFDR [N9H]: 1.53
PSIKRSLLNEFDR [N6S]: 1.11
PSIQRNLLNEFDR [K4Q]: -0.104
PSIKRNLLNQFDR [E10Q]: -0.0736
PSIKRNLYNEFDR [L8Y]: 0.494

Series 3
Target: Histone acetyltransferase KAT6A, winged helix 2, GST fusion (KAT6A, Homo sapiens, UniProt Q92794, residues 85-181)
Technique: protein binding microarray
Form: double-stranded DNA, one strand shown
Sample: in vitro
Concentration: not given
Notes: 8-mer, flanks averaged, mean of 2 arrays, mostly near background
Baseline: not given
Direction: higher = stronger binding
Endpoint: E-score
Target sequence (chain): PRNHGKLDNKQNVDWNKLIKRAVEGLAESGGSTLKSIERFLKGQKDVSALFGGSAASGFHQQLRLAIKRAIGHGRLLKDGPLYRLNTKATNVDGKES
CTTAGAAA: 0.102
GAGGCGGA: 0.168
ATCGAGGC: 0.0863
GCCGCCCC: 0.298
CTGCCGGC: 0.312
CGTTGGGA: 0.0212
CGCAGGGA: 0.0773
CTATTATC: -0.0679
CATGTTAG: -0.104
GGTTTAAC: 0.0501
CAGCATAG: 0.0459
AGCCTACT: -0.0741
CCAATAAG: 0.0167
AATCGAAG: 0.165
AAACATTC: -0.114
ACTAGCAC: -0.142
CATTCCAA: 0.0709

Series 4
Target: PABPC1L2, full length, GST fusion (mouse, UniProt A0ABA7IW68)
Technique: RNAcompete
Form: RNA
Sample: in vitro
Concentration: 20 nM
Notes: 7-mer, probes averaged, single round
Baseline: mean of 7-mers
Direction: higher = stronger binding
Endpoint: 7-mer Z-score
Target sequence (chain): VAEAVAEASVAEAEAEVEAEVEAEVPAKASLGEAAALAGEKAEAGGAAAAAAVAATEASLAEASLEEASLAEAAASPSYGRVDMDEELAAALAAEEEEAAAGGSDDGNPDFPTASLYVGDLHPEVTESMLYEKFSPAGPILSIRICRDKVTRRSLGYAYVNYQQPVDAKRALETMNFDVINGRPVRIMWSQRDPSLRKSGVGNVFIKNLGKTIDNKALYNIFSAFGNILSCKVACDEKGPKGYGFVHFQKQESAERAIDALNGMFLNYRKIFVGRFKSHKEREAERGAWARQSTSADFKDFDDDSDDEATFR
AGCUUGG: 0.066
ACCCGGG: -0.0881
CAACAUU: -0.0772
UCAGUAC: -0.226
GGAAACA: 0.948
GGUGAAG: 0.0497
UCAUAAA: 2.53
UACGGCU: -0.157
UAAGGAC: 0.104
GGCGUUC: -0.0428
GAUUAAA: 1.04
UCCCGUU: -0.501
AGUUUCU: -0.396
UUACAGU: -0.249
CACGCAG: 0.0207
ACAUCGG: 0.0225
UUACCCG: -0.175
CUGUAAC: -0.282
UUAUCAU: -0.173
CGACCUA: -0.0047

Series 5
Target: Interferon regulatory factor 7, full length, phosphomimetic (IRF7, Homo sapiens, UniProt Q92985, residues 1-503, S471D/S472D/S475D/S476D/S477D/S483D/S484D/S487D)
Chain of UniProt Q92985 (whole entry, unmodified, looked up): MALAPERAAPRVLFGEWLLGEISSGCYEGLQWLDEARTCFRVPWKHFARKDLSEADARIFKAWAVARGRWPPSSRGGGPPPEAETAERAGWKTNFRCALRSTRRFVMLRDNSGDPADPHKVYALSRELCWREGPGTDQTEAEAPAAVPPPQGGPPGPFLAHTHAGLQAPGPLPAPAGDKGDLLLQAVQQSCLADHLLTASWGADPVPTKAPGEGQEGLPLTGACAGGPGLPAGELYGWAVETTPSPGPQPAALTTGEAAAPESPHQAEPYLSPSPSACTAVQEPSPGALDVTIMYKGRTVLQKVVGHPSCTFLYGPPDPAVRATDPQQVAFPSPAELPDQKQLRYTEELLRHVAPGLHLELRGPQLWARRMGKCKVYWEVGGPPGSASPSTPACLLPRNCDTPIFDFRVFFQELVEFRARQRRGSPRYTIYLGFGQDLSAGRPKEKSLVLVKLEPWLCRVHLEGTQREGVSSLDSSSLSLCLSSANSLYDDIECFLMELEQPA
Technique: protein-binding microarray
Form: double-stranded DNA, one strand shown
Sample: in vitro
Concentration: 2200 nM top
Notes: 60-bp whole probe
Added: salmon DNA 0.4 mg/ml
Baseline: random background probes
Direction: higher = stronger binding
Endpoint: fitted relative affinity
Shared flanks, not repeated: GCCTAGCAC … GTCTTGATTCGCTTGACGCTGCTG
TTAGAACTGAGAATGGATTAGTGCTAG: -0.884 z-score
GACGGACTGGGTATCGTGACGTGCTAG: -0.343 z-score
TTCGGACTGGACTATCGGTTAGTGCTA: 0.0453 z-score
TGTCCTGTCTACATGGGTGTGTGCTAG: 0.711 z-score
CGAGTTTCTATTTTCTGAATGTGCTAG: 6.3 z-score
TTAGATTTCAGGTCCGATTAGTGCTAG: 0.857 z-score
TTAGGTATCGACACTGGGGTAGTGCTA: -0.0421 z-score
TTAGGTATCCGTTTCGGTTAGTGCTAG: 3.84 z-score
TCACCTCTCCCCTCTTGTACTGTGCTA: 1.65 z-score
TTAGGTTTGGACACTGGGTTAGTGCTA: 0.11 z-score
TTAGATTTCACTCTCGATTAGTGCTAG: 1.54 z-score
GACGGTTTCGGTTCCGTGACGTGCTAG: 11.4 z-score
GCCGGTCTCCTACTGCTGACGTGCTAG: 0.472 z-score
TCAAGTCTAGCCATTGTGACTGTGCTA: -0.0626 z-score
TTAGGTTTACTTTTCCTTTAGTGCTAG: 3.37 z-score
TCAAATATATGTATATAACTGTGCTAG: 0.00398 z-score
TCACTGGTCACTCTCTGACTGTGCTAG: 0.684 z-score

Series 6
Target: ABI1, truncated, D143A, DHFR fusion (Arabidopsis thaliana)
Technique: DHFR PCA, deep sequencing
Sample: yeast
Notes: methotrexate growth selection, single substitutions
Added: (+)-ABA 200 µM
Baseline: wild-type fitted maximum
Direction: higher = stronger binding
Endpoint: relative binding score
Parent: PYL1, truncated, DHFR fusion (Arabidopsis thaliana); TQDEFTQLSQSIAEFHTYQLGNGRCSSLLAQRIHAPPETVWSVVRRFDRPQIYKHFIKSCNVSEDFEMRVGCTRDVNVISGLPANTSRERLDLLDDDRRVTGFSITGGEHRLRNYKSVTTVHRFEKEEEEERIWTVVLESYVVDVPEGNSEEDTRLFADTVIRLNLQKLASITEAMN; partner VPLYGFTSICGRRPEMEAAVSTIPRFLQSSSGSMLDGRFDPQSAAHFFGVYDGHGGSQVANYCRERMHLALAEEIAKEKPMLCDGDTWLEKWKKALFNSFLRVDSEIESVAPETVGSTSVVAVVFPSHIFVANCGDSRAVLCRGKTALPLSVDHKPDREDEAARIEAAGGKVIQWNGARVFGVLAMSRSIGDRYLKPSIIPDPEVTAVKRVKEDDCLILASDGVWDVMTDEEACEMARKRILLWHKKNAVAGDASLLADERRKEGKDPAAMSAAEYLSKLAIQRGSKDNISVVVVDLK
F5M: 97.2%
E67L: 93.3%
V143S: 58.4%
E130S: 106%
Q51W: 95.2%
V62H: 72.1%
E151D: 95.1%
L28G: 35.8%
S150L: 66.7%
V100M: 97.9%
Y18R: 87.2%
I12S: 41.8%
D75N: 106%
R88A: 93.5%
R98I: 112%

Series 7
Target: RING finger protein unkempt homolog, zinc fingers 1-6, SBP tag (UNK, Homo sapiens, UniProt Q9C0B0, residues 30-357)
Chain of UniProt Q9C0B0 (30-357, looked up): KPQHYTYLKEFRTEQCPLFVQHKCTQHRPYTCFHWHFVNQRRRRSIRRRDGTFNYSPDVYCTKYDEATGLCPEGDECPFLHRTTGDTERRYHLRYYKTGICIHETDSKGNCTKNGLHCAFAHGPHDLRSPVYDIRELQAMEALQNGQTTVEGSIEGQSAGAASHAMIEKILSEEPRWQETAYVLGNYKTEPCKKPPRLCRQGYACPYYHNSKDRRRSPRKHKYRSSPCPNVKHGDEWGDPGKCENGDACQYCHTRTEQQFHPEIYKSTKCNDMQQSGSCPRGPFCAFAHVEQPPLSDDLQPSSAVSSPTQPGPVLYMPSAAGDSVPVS
Technique: RNA Bind-n-Seq
Form: RNA
Sample: in vitro
Concentration: 100 nM
Notes: RNA with constant flanks, vertebrate orthologous sites, ends assumed
Baseline: input RNA pool
Direction: higher = stronger binding
Endpoint: bound/input enrichment
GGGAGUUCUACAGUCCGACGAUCAUUAAAUGUGUAUCAGAUGCUGGAUGUAACAUUAAAUCAUCAUUUAUAAUAGAUGUUAAUUUGUAAUAACUAAGCUACAAAUAGGUUUCUUUGAACCAGAGAUGCACUGCCCUUGUCUGACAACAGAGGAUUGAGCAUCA: 0.144 ratio
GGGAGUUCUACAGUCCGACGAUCUUUACUUUGCUUUCAUUUUAUUCCUUUAUUUCUUCCUUCCUUCCUUUUUUCUUUUUUUUUUUGGUAGUUGUUACCACGCCAUUUUACGUCUCCUUCACUGAAGGGCUAGAGUUUUAACUUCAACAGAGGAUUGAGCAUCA: 4.49 ratio
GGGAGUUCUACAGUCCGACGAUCGUAUCUUGGUUUGGGGUAGAGGGGAGGGAGGGGCAGGGCUGUGGAAUCUCUCCGGUAUAUGGGUAGAUAAGUGGACCUAUGUUAACCUCUGGGGCAUCUGUUUUGGGGGUGAGUAUGGGUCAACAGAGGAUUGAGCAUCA: 0.643 ratio
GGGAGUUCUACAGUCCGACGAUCAAAAAACCCCGAUUUUAGAUAUUUAGGCUUUCAUUCUAGUUGGUUUUGUCUUUUCUUGUUUAGAUACCACUUAAAUUCUUGGCAUUUUAGUAAGCAAGCUACCUUUUUAUGGAUGUUAGCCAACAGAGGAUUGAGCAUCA: 1.12 ratio
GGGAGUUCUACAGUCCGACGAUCAAGCUCUAGUUUCUAACAACUGACACCCUAAAAGAUUUAGAAAAGGUUUACAACACAAUCUAGUUUACGAAGAAAUCUUGUGCUAGAAUACUUUUCAAAGUAUUUUUGAAUACCAUUAAACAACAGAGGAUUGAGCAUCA: 0.363 ratio
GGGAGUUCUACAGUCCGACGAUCGAGUGCUUAAGCCAAGAAAAAUUCUAAAAUGCUAUUUAUUUGUUUCUGUAAGUUUGUACAUAAUACUAUCAACCUCACAUUGUUCUUGAGUUUUGAUUUUUUUUAAUCAGUUUGAAUUUUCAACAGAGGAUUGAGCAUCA: 0.497 ratio
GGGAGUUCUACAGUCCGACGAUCUCCCGGCAGCGCCAGCGCGGGUAGCCACCCUUCUCACACUGCUCUGUCUUUAUUUUAUUUUCCUCAGGACUGACCUUGAGGCUCCAGCUUUUGUGGUUCAUCUCGUAUUUAUUUUAUCUUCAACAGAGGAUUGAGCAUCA: 1.16 ratio
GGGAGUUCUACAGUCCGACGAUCGCAUGCACAUGCCUCUGUCACCAAAAGCAAACACGGUCUUCAGAAUCUCCAAUAGCAUUUUUAGUAUCUCCCUCUUUCCCUUCUGUUUCCCUAAUGCUUUAAAUGAUUAGAAGUCCUGGACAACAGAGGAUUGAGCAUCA: 3.55 ratio
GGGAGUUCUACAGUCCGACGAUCAUUUAGAAUGUUAAUAAAUUGCUCUGAGAUUCCUCAAGUCCAUUUUGUAAGAUCAGACCAUAGGUGGGUGUUGUUUCUUUUAAGUUUGUGUGCUGUGUCCAGUGUUACAUUUUUAAAAGUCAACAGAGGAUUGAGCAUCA: 3.2 ratio
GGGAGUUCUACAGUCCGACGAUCCAGUUUAGAUAUUCUUUUAAUUUUUUUUCUUUUCCCUUAAUCCUUUUUUAUUUUUAAAAAUAGUUCUUUUGUAACGUGGUGUUCAAAAUGGAAUUGAAAACAGGCGCCUCUCUUUAAAACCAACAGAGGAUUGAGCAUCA: 7.16 ratio
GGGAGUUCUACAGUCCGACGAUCUUCCCCCUCCCCUCAGGAUGGGGUGGGGGGAGCCCAUGAUGACCCUCAGCUGUUCCAAUCCAGUAGUUUUUUUUUUUUUUUUCUUUUUAAAAUUACUGUAUUUAUUAUGACGACGGUGACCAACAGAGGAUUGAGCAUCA: 1.22 ratio

Some of these lines once more (series 6):
V62H: 72.1%
R88A: 93.5%
F5M: 97.2%
I12S: 41.8%
Y18R: 87.2%
E151D: 95.1%
R98I: 112%
Q51W: 95.2%
L28G: 35.8%
V143S: 58.4%
S150L: 66.7%
E67L: 93.3%
D75N: 106%
V100M: 97.9%
E130S: 106%
